# Measurements from different studies.
# Every numbered part comes from another study and shows a few of its results, in no order.

# Set 1
# Target: Interferon regulatory factor 5, full length, phosphomimetic (IRF5, Homo sapiens, UniProt Q13568-2, residues 1-514, K96S/S451D/S453D/S456D/S462D)
# Technique: protein-binding microarray
# Form: double-stranded DNA, one strand shown
# Matrix: in vitro
# Concentration: 250 nM
# Setting: 60-bp whole probe
# Together with: salmon DNA 0.4 mg/ml
# Relative to: random background probes
# Direction: higher = stronger binding
Oligonucleotide,log fluorescence
GCCTAGCACGACGGTTTCGGTGTCGGGACGTGCTAGGTCTTGATTCGCTTGACGCTGCTG,8.78 z-score
GCCTAGCACGGCGAACTGAGTTTCGAGACGTGCTAGGTCTTGATTCGCTTGACGCTGCTG,4.89 z-score
GCCTAGCACGCCGGTCTCGGTATCGGGACGTGCTAGGTCTTGATTCGCTTGACGCTGCTG,1.13 z-score

# Set 2
# Target: Phosphate system positive regulatory protein PHO4, full length, GST-tagged (PHO4, Saccharomyces cerevisiae, UniProt P07270, residues 1-312)
# Technique: competition protein-binding microarray
# Form: double-stranded DNA, one strand shown
# Matrix: in vitro
# Concentration: 2 µM
# Setting: whole 60-bp probe, lowest competitor level
# Together with: Cbf1 competitor, 0.05 µM
# Direction: higher = stronger binding
# Construct (chain): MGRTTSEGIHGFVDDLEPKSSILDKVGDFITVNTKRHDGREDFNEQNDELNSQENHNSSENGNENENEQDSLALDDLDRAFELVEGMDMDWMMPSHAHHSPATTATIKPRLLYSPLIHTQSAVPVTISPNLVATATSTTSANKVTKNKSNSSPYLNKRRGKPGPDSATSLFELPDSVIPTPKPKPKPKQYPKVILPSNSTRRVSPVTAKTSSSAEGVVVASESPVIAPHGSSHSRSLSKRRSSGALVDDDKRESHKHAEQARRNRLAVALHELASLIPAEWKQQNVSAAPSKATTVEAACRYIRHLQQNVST
Oligonucleotide,fluorescence intensity [a.u.]
TGTGGGTAATTAGATAATTGTTGGGATTCCATTGTTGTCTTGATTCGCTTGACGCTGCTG,2920
GGGCTGTAGCTTGGCGACGTGGGACAGTAGGAAGGCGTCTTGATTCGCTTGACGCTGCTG,6560
GTTTCAGAAAATCCATGTCATTAAAGAGCTTTATCAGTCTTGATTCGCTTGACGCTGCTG,3420
TTGCTGAGGAAGAGAGACGTGCTTTTGCCAACTCCAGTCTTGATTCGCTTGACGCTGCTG,5930
CGTCCTAGTGATTGGGGGGTGGGTGCCATGAGGAAGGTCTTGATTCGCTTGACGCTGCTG,8360

# Set 3
# Target: RING finger protein unkempt homolog, zinc fingers 1-6, GST-SBP tag (UNK, Homo sapiens, UniProt Q9C0B0, residues 30-357)
# UniProt Q9C0B0, sequence (30-357, looked up): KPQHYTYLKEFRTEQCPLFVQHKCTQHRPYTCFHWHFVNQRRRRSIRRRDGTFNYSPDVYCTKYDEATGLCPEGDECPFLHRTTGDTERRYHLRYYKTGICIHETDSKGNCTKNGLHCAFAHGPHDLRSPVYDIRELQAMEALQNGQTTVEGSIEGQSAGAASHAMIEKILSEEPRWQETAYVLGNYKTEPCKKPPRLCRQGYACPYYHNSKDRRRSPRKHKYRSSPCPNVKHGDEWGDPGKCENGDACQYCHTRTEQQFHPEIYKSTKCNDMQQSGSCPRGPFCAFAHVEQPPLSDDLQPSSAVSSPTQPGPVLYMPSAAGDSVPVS
# Technique: RNA Bind-n-Seq
# Form: RNA
# Matrix: in vitro
# Concentration: not given
# Setting: RNA with constant flanks, human and mouse sites, ends assumed
# Relative to: input RNA pool
# Direction: higher = stronger binding
Oligonucleotide,bound/input enrichment
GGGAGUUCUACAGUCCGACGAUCGGAGGAAUGAAUUUAUCUAGCAAGCUGGCCCAACUCACUUGCCAUGGCAAUCUCUGCCACAGCUUCCAGUCCUUCAAUACUUCAUAUACAGACACAGGAUUAUGGGGACUCUAUAUGGUCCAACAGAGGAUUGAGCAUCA,0.304 ratio
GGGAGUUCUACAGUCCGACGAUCUCUUUUGCUUUUUCUCGGCACGUGGUAUCUCCACCAUUUCUUCUGCACAAAGAUGUCUUCUGUUCAUCCUGAACAUUUUUAAAAAAUGCAGAAUUUUAUGUGACUGCUUUUUUGCCUCACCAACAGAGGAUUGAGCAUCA,0.108 ratio
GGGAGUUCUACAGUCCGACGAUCGCGCCGAGUACUCGUGCCCCCAAACCCUCCCGGAGUCUCUCUGGCUCACUUUGUGCCCUGUUUUCUGAUGCAGACUCGGGAUCCGGGAUGAAGGCGGAGCUUCCCCCUGGGCCUGGGGCACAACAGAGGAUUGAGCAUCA,0.172 ratio
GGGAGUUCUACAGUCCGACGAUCUUUGGACAGUGCUAUGAGUUUCUUACUCUUCACACAGUGAAAAAGUACUUUCUUCCAAUAAUAGAAAUGGUUCCACAGUUUUUAGAAAACUUAACUGAUGAAGAGCUGAAGAAAGAAGCACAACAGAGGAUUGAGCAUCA,0.558 ratio
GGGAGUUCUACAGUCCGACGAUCCAGUGGUAUUAAUGGAUGGCAUUAUGUUUGGAGGCAGCAGCAUAGAGGACUGUUGUUUAUAGAGAAAAGAUUUGGGAAGGACUGUUUACAAUGUGGGUCAGCCUGAAGCCUGGGCACUUUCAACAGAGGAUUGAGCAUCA,1.78 ratio
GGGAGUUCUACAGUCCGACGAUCUCUCGUUAAAACCACCAGUAAAAGUGUAACCUUUCUGUUUUGUACAAGGCCUUUCAGUUUUUGUUUUUGGGAAACCAAGGGAAAAAGCACAUUGCAAUCUACUCAAGUGUUUUACCGUUGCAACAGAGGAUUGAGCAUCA,0.124 ratio

# Single results of other studies
Molecule,target,test,system,conditions,scale,quantity,result
"PhoQ, residues 284 288 289 292 302 303 TNSAEL","PhoP, residues 12 14 15 18 19 NFCKL (Escherichia coli, UniProt P23836)","Sort-seq, measured: YFP reporter",E. coli,"PhoQ-PhoP variant library, together with: 10 µM Mg2+","relative to: high Mg2+ state, higher = stronger signaling",fold induction,1.08

# A few entries again (set 1):
Oligonucleotide,log fluorescence
GCCTAGCACGGCGAACTGAGTTTCGAGACGTGCTAGGTCTTGATTCGCTTGACGCTGCTG,4.89 z-score
GCCTAGCACGCCGGTCTCGGTATCGGGACGTGCTAGGTCTTGATTCGCTTGACGCTGCTG,1.13 z-score
